Measured values from different studies.
A part holds a random share of what one study measured. Positions count from the first letter of the parent shown.
Sequence of UniProt P00519 (whole entry, unmodified, looked up): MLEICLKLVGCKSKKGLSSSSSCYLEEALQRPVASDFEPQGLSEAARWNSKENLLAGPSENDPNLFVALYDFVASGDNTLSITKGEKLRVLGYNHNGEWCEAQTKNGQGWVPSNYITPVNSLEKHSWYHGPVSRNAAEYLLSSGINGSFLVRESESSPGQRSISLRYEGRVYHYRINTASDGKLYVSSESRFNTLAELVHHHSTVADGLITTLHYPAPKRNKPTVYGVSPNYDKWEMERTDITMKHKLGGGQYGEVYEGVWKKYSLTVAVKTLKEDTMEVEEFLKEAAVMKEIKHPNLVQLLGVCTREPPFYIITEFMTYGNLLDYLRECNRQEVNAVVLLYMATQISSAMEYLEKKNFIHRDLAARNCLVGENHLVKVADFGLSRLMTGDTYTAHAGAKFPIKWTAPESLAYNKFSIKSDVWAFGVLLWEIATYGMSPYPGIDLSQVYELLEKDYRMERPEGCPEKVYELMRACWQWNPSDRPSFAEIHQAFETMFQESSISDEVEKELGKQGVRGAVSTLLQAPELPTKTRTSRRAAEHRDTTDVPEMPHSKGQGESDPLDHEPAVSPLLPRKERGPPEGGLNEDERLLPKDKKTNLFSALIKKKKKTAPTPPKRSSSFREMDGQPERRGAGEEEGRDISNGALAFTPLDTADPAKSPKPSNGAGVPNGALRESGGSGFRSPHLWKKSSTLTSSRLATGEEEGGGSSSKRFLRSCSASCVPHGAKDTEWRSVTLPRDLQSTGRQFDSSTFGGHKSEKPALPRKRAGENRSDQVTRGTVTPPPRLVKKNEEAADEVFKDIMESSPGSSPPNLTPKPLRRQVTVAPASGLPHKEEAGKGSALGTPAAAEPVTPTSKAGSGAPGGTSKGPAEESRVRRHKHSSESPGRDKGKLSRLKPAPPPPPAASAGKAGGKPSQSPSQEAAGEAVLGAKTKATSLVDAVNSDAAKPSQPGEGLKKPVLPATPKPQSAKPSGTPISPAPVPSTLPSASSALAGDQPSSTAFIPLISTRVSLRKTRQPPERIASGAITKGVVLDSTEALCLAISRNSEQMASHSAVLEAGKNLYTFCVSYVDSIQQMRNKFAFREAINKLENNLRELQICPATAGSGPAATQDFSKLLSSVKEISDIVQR
Sequence of UniProt P35916 (whole entry, looked up): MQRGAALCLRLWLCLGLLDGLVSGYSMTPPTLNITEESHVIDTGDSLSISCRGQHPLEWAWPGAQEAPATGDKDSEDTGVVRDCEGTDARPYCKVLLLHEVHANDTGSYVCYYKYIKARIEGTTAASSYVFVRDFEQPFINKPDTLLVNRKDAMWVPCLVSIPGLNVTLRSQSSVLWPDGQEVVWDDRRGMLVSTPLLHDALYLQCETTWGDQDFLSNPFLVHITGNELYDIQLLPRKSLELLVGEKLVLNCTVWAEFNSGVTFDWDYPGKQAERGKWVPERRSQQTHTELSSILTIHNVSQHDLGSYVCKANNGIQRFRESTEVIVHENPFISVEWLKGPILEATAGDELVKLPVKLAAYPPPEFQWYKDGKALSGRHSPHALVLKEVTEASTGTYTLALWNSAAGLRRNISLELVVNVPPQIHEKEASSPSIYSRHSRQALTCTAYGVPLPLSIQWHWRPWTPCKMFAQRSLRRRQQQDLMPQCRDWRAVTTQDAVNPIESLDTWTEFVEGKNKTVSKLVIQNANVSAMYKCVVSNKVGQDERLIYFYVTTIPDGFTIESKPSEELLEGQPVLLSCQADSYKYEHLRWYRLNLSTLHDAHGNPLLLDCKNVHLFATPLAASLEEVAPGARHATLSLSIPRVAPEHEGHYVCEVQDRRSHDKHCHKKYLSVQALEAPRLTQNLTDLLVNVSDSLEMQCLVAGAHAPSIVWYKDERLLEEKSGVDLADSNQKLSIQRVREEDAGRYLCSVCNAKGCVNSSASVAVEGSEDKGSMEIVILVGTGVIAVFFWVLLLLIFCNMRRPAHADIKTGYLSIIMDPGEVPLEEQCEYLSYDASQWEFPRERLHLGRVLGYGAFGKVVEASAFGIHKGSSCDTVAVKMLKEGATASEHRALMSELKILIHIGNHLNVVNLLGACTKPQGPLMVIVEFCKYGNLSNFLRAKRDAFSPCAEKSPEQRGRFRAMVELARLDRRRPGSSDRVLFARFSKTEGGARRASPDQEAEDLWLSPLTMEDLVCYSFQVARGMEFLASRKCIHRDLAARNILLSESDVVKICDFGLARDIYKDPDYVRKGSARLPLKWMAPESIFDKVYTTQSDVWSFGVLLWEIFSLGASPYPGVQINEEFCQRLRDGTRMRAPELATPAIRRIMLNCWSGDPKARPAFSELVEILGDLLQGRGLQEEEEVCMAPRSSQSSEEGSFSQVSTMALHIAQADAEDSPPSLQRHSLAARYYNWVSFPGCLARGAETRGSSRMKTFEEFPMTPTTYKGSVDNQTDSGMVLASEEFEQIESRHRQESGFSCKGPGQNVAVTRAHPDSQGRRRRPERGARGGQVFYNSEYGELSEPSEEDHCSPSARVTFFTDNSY
Sequence of UniProt Q8NFD2 (whole entry, looked up): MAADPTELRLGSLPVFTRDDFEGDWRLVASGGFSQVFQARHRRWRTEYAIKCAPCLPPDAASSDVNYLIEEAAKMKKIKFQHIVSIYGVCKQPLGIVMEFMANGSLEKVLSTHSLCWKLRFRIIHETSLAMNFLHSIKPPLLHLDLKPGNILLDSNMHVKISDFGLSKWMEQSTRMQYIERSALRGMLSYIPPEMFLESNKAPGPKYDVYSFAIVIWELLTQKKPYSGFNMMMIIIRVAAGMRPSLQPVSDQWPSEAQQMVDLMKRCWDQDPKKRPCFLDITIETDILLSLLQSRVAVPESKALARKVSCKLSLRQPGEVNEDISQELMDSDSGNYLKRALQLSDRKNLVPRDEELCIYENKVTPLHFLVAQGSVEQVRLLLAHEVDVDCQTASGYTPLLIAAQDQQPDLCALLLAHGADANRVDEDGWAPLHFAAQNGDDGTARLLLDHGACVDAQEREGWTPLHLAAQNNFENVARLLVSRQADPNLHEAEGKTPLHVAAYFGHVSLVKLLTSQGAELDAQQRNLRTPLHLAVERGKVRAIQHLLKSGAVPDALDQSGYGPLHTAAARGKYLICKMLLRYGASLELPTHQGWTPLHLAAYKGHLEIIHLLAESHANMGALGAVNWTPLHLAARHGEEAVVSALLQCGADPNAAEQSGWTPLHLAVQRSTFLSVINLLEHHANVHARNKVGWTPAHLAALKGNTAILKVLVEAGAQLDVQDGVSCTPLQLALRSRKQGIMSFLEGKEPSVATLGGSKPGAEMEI

Study 1
SMILES: CCCOc1ccc([C@H]2[C@H](C(=O)O)[C@@H](c3ccc4c(c3)OCO4)CN2CC(=O)Nc2c(CC)cccc2CC)cc1
Tested at: 1 µM
target | test | remaining binding [%]
Epidermal growth factor receptor (EGFR, Homo sapiens, UniProt P00533, del752-759) | cell-free assay, competition with immobilised ligand | 100
Vascular endothelial growth factor receptor 3 (FLT4, Homo sapiens, UniProt P35916) | cell-free assay, competition with immobilised ligand | 90
Tyrosine-protein kinase ABL1, phosphorylated (ABL1, Homo sapiens, UniProt P00519, F317I) | binding | 71
Ankyrin repeat and protein kinase domain-containing protein 1 (ANKK1, Homo sapiens, UniProt Q8NFD2) | cell-free assay, competition with immobilised ligand | 65

Study 2
Target: ABI1, truncated, D143A, DHFR fusion (Arabidopsis thaliana, UniProt P49597)
Technique: DHFR PCA, dose-response
Matrix: yeast
Setting: Hill fit, mean, not affinity
With: (+)-ABA, dose series
Reading: lower = more sensitive
Parent: PYL1, truncated, DHFR fusion (Arabidopsis thaliana, UniProt Q8VZS8); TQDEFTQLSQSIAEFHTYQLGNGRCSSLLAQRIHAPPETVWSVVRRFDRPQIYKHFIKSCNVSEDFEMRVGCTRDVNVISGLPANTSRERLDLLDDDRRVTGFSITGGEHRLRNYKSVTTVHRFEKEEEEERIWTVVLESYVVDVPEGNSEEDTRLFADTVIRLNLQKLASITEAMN
Substitution | ABA EC50 [µM]
E131L | 4.02
A30V | 1.61
F56C | 34.7
I52Q | 2.48
E129A | 1.97
S150V | 32.8
S42W | 48.1
I133R | 3.99

Study 3
Target: Histone acetyltransferase KAT6A, both winged helices, GST fusion (KAT6A, Homo sapiens, UniProt Q92794, residues 1-181)
Technique: protein binding microarray
Molecule type: double-stranded DNA, one strand shown
Matrix: in vitro
Tested at: not given
Setting: 8-mer, flanks averaged, mean of 2 arrays, mostly near background
Reference: not given
Reading: higher = stronger binding
Construct (chain): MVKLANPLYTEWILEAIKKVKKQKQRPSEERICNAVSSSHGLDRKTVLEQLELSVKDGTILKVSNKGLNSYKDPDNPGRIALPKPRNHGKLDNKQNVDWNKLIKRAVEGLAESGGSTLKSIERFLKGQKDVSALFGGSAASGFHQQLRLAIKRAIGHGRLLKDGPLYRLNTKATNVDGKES
Sequence | E-score
AGCATTCG | -0.121
AGATACGG | 0.141
AGCACGAA | -0.117
CCCATTAA | -0.127
AAGTTTGA | -0.0322
GTATCGAA | 0.0724
AGTATAAT | -0.163
TAGTGCGA | 0.105

Further values, each from its own experiment
Structure (SMILES) | system | measurement | result
CCOC(=O)[C@@H]1CSCC(=O)N[C@@H](CC)C(=O)N(C)[C@@H](C)C(=O)N[C@H](CC(C)C)C(=O)N2CCC[C@@H]2C(=O)N(CC)CC(=O)N[C@H](CC(C)C)C(=O)N(C)[C@H](C)C(=O)N[C@@H](CC(C)C)C(=O)N1C | hydrocarbon/water | logD | 0.569

For quick reference, copied from above (study 3):
Sequence | E-score
AGATACGG | 0.141
TAGTGCGA | 0.105
AAGTTTGA | -0.0322
